Measurements gathered from unrelated publications.
Numbered parts are unrelated; each lists some results of a single study. Substitutions count along the parent as printed.

Series 1
Target: ABI1, truncated, D143A, DHFR fusion (Arabidopsis thaliana)
Technique: DHFR PCA, deep sequencing
Matrix: yeast
Notes: methotrexate growth selection, single substitutions
Added: (+)-ABA 0.032 µM
Relative to: wild-type fitted maximum
Direction: higher = stronger binding
Endpoint: relative binding score
Starting sequence: PYL1, truncated, DHFR fusion (Arabidopsis thaliana); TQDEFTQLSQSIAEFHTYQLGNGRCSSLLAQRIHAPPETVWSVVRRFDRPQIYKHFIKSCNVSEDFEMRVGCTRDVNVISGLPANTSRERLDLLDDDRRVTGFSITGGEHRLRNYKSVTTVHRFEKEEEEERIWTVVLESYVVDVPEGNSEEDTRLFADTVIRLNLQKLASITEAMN
N22E: 51.7%
L91T: -3.1%
N177G: 18.9%
E127V: 31.4%
H110D: 47.6%
A13P: -3.4%
T173G: -0.684%
P50R: -0.452%
I57C: -1.87%
L166Q: 3.46%
D144Q: -0.757%
V44C: -1.01%
A175I: -5.97%
V137P: -4.29%
K58M: -6.09%
R132F: 15.4%
I162E: 3.21%
C72G: -1.56%

Series 2
Target: RNA binding protein fox-1 homolog 2, RRM domain, GST-SBP tag (RBFOX2, Homo sapiens, UniProt O43251-10, residues 100-194)
Technique: RNA Bind-n-Seq
Molecule type: RNA
Matrix: in vitro
Concentration: 365 nM
Notes: natural RNA segment, single round, ends assumed
Relative to: no-protein control
Direction: higher = stronger binding
Endpoint: RBNS enrichment (R)
Construct (chain): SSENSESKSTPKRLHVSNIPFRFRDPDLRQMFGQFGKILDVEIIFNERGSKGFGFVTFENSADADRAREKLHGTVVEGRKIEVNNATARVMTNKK
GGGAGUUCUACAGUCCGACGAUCCUUGGGAUCAGUGGAAAGAAUGAUUGCUAUCCUCACAGAAAACUAUGGGGGCAAAUGGCCCUUUUGGCUGUCCCCUCGCCAGGUAAUGGUAGUUCCAGUGGGACCAACCUUGGAAUUCUCGGGUGCCAA: 0.278
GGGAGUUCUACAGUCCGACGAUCCUUGUUUGAAACAAUGCUUGACAAUUCAGAAAUUAACCACUGAUGUGCUGUGGAAUGUGAUGCUUGUCCUCAUAUAGUCUCAGUUUCUCUUUUUAUGCAGAUAUUUGUGAUGGAAUUCUCGGGUGCCAA: 0.781
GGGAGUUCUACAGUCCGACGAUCGUUUCAGUUUUGAAGUGUGUACUUUCUCCUCUGUGUGUGCCAAUUACAUAUUAGAGAACAAGGAAUGUGUACUUUGGUGGCUUUGAACCAAGAAAAGGUUUUAAGCCUACUGGAAUUCUCGGGUGCCAA: 0.277
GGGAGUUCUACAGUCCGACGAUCAGCUCACUGUAACUUCUCCCAUACUCUACCAAUCCUCCUGCCUCAGCAUCCAGACUAGCUGUGAUUACAGGUGUGCACCACCACACCCAGCUACAUUUUUUUUUGGUAGAUGGAAUUCUCGGGUGCCAA: 0.794
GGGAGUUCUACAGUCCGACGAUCUGUGCCUGGCGUCUGUCCCGGCCCCGCCUGUCAGAAGAUGAACAUGUAUAGUGGCUAACUUAAGGGGAGUGGGUGACCCUGACACUUCCAGGCACUGUGCCCAGGGUUUGUGGAAUUCUCGGGUGCCAA: 0.236
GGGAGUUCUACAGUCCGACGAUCUUUAUAGCAAAGUUAUCUUAAAUAUGAAUUCUGUUGUAAUUUAAUGACUUUUGAAUUACAGAGAUAUAAAUGAAGUAUUAUCUGUAAAAAUUGUUAUAAUUAGAGUUGUGUGGAAUUCUCGGGUGCCAA: 0.402
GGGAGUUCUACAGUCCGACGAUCUACUACAUCGCCCUCCACAUCCCUGAUUCCUGUUGUUAUGGAAACUGUUGCCAGAGAUGGAGGUUCUCUCGGAGUAUCUGGGAACUGUGCCUUUGAGUUUCCUCAGGCUGUGGAAUUCUCGGGUGCCAA: 0.411
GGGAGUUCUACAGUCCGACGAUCGGAAAACCAAAAAGAAGAAAAGCAUUAAAAGGAUUUAGCACUGGAGACUGUACAGCCACCCUCAGCUGCCAUCUUUGUCUUCCUGCUGCCACCUCAGGCAGCUGUUACUCUGGAAUUCUCGGGUGCCAA: 0.818

Series 3
Target: Ras GTPase-activating protein-binding protein 1, full length (G3BP1, Homo sapiens, UniProt Q13283)
UniProt Q13283, sequence (whole entry, looked up): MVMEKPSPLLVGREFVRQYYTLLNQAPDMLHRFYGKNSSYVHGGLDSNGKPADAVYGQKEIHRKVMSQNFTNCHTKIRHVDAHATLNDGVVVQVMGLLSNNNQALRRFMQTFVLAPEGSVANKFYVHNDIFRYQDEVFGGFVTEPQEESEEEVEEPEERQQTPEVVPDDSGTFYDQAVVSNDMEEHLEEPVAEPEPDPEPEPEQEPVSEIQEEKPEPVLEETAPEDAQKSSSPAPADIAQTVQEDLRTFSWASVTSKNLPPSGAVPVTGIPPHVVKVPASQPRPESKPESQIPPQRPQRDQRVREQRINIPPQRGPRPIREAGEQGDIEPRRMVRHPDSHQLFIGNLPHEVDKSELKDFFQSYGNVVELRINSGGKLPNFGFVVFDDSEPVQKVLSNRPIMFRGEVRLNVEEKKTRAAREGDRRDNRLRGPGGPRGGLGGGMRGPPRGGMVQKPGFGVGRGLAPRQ
Technique: RNA Bind-n-Seq
Molecule type: RNA
Matrix: in vitro
Concentration: 200 nM
Notes: whole 134-nt RNA, ends assumed
Added: 150 mM KCl
Relative to: input library
Direction: higher = stronger binding
Endpoint: log2 enrichment
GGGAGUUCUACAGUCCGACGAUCCUCAAGUCCUGUGCUACACAUCGUAUGUACCGAAUCGGGGCGGGGCGGCGGGGAAAGUAUUAUGUUACGCCGUUCGGAUCUGCACUUCCAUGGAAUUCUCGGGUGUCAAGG: 0.918
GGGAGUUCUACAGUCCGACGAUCUCCUCAAGUCCUGUGCUACACAUCGUAUGUACCGAAUCGGGAGGGAGGGAGGAAAGUAUUAUGUUACGCCGUUCGGAUCUGCACUUCCAGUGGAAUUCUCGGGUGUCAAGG: 1.91
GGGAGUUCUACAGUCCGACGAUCUCCUGUGCUACACAUCGUAUGUACCGAAUCGGGUUUUUUGGUUUUUUGGGUUUUUUGGGGAAAGUAUUAUGUUACGCCGUUCGGAUCUGCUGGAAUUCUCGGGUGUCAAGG: -0.571
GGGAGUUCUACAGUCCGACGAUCUCCUGUGCUACACAUCGUAUGUACCGAAUCGGGCCCCCCGGGGCCCCCCGGCCCCCCGGAAAGUAUUAUGUUACGCCGUUCGGAUCUGCAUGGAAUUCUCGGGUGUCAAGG: -0.101
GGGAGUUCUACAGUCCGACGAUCCCUGUGCUACACAUCGUAUGUACCGAAUCGGGGAAAAAGGGGAAAAAAAGGGGAAAGGGGAAAGUAUUAUGUUACGCCGUUCGGAUCUGCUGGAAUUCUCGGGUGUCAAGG: 0.463
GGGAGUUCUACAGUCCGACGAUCUGGCCCUGGUGGCAUGCGGGGAGGAAGAGGUGGCCUCAUGGAUCCUGGUGGUCCCGGUGGAAUGUUCAGAGGUGGCCGUGGUGGAGACAGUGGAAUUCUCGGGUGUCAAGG: -0.0265
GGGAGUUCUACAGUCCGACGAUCUCAAGUCCUGUGCUACACAUCGUAUGUACCGAAUCGGUGGAAAGGAAAAAAAGGAAAGUAUUAUGUUACGCCGUUCGGAUCUGCACUUCCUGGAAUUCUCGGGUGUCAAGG: -0.804
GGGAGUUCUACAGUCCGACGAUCCAAGUCCUGUGCUACACAUCGUAUGUACCGAAUCGGAAAAAAAGGUUUGGAAAGGAAAGUAUUAUGUUACGCCGUUCGGAUCUGCACUUCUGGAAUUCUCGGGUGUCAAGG: -1.58
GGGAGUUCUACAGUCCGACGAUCUUUGCAGAGCAGUCUCUGAUGAAGAAUGCCAUAAAAACAUCGGAGGAGUCAUGGAUUGAACAGCAGAUGCUAGAAGACAAGAAACGGGCCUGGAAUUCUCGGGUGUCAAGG: -1.19

Series 4
Target: CCNE1, cyclin fold, Cln2 fusion (human)
Technique: yeast growth competition, sequencing
Matrix: yeast
Notes: weak parent motif
Relative to: not given
Direction: higher = stronger binding
Endpoint: normalised enrichment score
Starting sequence: REV3L docking peptide (human); PPVIIKYIIINRF
P1A: 0.709
I5A: 0.145
I9A: 0.264
I10A: 1.1
Y7A: 0.855
V3A: 0.658
I4A: 0.433

Some of these lines once more (series 2):
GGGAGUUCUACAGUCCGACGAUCUUUAUAGCAAAGUUAUCUUAAAUAUGAAUUCUGUUGUAAUUUAAUGACUUUUGAAUUACAGAGAUAUAAAUGAAGUAUUAUCUGUAAAAAUUGUUAUAAUUAGAGUUGUGUGGAAUUCUCGGGUGCCAA: 0.402
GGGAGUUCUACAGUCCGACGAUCAGCUCACUGUAACUUCUCCCAUACUCUACCAAUCCUCCUGCCUCAGCAUCCAGACUAGCUGUGAUUACAGGUGUGCACCACCACACCCAGCUACAUUUUUUUUUGGUAGAUGGAAUUCUCGGGUGCCAA: 0.794
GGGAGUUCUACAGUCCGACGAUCUACUACAUCGCCCUCCACAUCCCUGAUUCCUGUUGUUAUGGAAACUGUUGCCAGAGAUGGAGGUUCUCUCGGAGUAUCUGGGAACUGUGCCUUUGAGUUUCCUCAGGCUGUGGAAUUCUCGGGUGCCAA: 0.411
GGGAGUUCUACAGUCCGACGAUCCUUGUUUGAAACAAUGCUUGACAAUUCAGAAAUUAACCACUGAUGUGCUGUGGAAUGUGAUGCUUGUCCUCAUAUAGUCUCAGUUUCUCUUUUUAUGCAGAUAUUUGUGAUGGAAUUCUCGGGUGCCAA: 0.781
